Results pooled from the literature.
A part holds a random share of what one study measured. Positions count from the first letter of the parent shown.

Block 1
Target: PABPC1L2, full length, GST fusion (mouse, UniProt A0ABA7IW68)
Technique: RNAcompete
Molecule type: RNA
Matrix: in vitro
Concentration: 20 nM
Setting: 7-mer, probes averaged, single round
Relative to: mean of 7-mers
Direction: higher = stronger binding
Measurement: 7-mer Z-score
Target sequence (chain): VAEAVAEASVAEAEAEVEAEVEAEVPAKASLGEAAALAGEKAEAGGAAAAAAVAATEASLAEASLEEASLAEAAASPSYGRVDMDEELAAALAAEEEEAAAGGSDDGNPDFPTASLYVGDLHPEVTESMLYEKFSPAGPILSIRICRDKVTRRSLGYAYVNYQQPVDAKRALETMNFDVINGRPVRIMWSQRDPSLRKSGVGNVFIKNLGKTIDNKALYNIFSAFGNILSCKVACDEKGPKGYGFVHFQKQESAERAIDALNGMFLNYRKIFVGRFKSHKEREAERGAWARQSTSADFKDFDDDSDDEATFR
GCUUCGG: -0.264
GAUCAAA: 0.872
UCGCAGC: -0.28
GGGAAUC: 0.0678
GAAAUAG: 1.35
CCAUUCU: -0.371
CAGCUAC: -0.206
GAAGGAG: 0.131
GCGGCUC: 0.00798
CAGUGGC: -0.0627
GAGUCGA: -0.351
CGCGCAA: -0.242
GAGGUCA: -0.0319
GGGGGAC: 0.503
CAUCGGG: -0.0192
UCCACCA: -0.17
UUCGUGU: -0.398
AGCGUUU: -0.257
UUGUAAG: -0.0718
UGGUGUA: 0.126
UAGGGAA: 0.146

Block 2
Target: Prothrombin, mature alpha-thrombin (F2, Homo sapiens, UniProt P00734)
Technique: aptamer microarray, sandwich
Molecule type: DNA with 2'F-ANA
Matrix: in vitro
Concentration: 200 nM
Setting: whole 15-mer aptamer, many near background
With: Cy3 exosite-II aptamer, 400 nM
Direction: higher = stronger binding
Measurement: mean fluorescence intensity
Oligonucleotide: GGTTGGTGTGGTTGG
2'F-ANA at 1 4 5 6 7 11 13: 50.4 a.u.
2'F-ANA at 5 7 8 10 11: 48.4 a.u.
2'F-ANA at 1 3 5 6 11 12 13 14: 45.9 a.u.
2'F-ANA at 1 2 8 9 11 14 15: 56.8 a.u.
2'F-ANA at 1 2 3 5 7 9 10 11: 48.2 a.u.
2'F-ANA at 1 2 4 5 6 11 15: 48.5 a.u.
2'F-ANA at 4 5 6 8 9 14: 45.9 a.u.
2'F-ANA at 1 2 3 5 7 12 14 15: 64.6 a.u.
2'F-ANA at 1 3 7 9 10 13: 74.9 a.u.
2'F-ANA at 3 4 6 13 14 15: 244 a.u.
2'F-ANA at 3 5 8 11 13: 157 a.u.
2'F-ANA at 2 3 4 5 6 7 8 9 12 14: 58.9 a.u.
2'F-ANA at 2 5 6 7 8 9 11 13 14 15: 50.5 a.u.
2'F-ANA at 1 3 4 5 7 11 12 13 14: 49.1 a.u.
2'F-ANA at 1 2 7 10: 77.9 a.u.
2'F-ANA at 2 9 10 12 13: 163 a.u.
2'F-ANA at 1 2 3 4 5 7 8 9 13 15: 53.6 a.u.
2'F-ANA at 5 6 7 10: 46.5 a.u.
2'F-ANA at 1 2 3 5 6 8 9 10 15: 46.9 a.u.
2'F-ANA at 1 2 5 8 11 13 14: 53.7 a.u.
2'F-ANA at 1 2 3 4 5 7 10 11 12 15: 48.1 a.u.

Block 3
Target: ABI1, truncated, D143A, DHFR fusion (Arabidopsis thaliana)
Technique: DHFR PCA, deep sequencing
Matrix: yeast
Setting: methotrexate growth selection, single substitutions
With: (+)-ABA 58 µM
Relative to: wild-type fitted maximum
Direction: higher = stronger binding
Measurement: relative binding score
Starting sequence: PYL1, truncated, DHFR fusion (Arabidopsis thaliana); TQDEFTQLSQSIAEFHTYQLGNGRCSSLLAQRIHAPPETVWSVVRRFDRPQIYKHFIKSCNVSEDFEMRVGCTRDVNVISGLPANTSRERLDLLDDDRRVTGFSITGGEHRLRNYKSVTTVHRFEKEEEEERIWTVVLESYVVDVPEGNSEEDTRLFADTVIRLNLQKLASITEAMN; partner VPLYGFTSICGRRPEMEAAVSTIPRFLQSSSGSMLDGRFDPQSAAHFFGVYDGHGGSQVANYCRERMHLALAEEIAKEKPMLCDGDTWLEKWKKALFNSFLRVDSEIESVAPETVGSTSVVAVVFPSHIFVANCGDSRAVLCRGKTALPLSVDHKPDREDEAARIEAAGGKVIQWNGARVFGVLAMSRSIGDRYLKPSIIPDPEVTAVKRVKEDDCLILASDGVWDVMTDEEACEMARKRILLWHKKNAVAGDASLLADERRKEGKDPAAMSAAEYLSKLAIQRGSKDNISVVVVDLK
M176I: 85.5%
L169R: -0.231%
Q2C: 91%
Q19K: 97.4%
V70Q: 66.5%
A158N: 45.3%
N22F: 81.7%
M176A: 82.8%
F157E: 1.55%
A170R: 85.3%
H122T: 27.8%
Q167G: 79.5%
D159Q: 46.5%
A158F: 5.44%
V142M: 71.6%
K54V: 0.476%
E131G: 103%
T6K: 103%
K58A: 84.5%
N165H: 30.1%
F5C: 89.7%
M176R: 87.2%
V143T: 77.2%
V161Q: 10.6%
D95P: -6.46%

Block 4
Target: Histone acetyltransferase KAT6A, both winged helices, GST fusion (KAT6A, Homo sapiens, UniProt Q92794, residues 1-181)
Technique: protein binding microarray
Molecule type: double-stranded DNA, one strand shown
Matrix: in vitro
Concentration: not given
Setting: 8-mer, flanks averaged, mean of 2 arrays, mostly near background
Relative to: not given
Direction: higher = stronger binding
Measurement: E-score
Target sequence (chain): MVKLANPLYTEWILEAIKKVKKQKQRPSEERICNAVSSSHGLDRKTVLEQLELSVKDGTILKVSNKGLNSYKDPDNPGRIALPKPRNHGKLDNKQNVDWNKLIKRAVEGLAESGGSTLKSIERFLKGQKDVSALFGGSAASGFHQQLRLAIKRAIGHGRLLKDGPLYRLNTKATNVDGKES
CAGGCAAC: -0.172
GCCGTACA: 0.228
ATTACCCA: -0.236
AGATAACG: 0.0862
ATTAATTA: -0.118
CATGCAGG: -0.246
ACGTAGAC: -0.161
CCGGGCAG: 0.112
AGTGCCAA: -0.199
ATGCGAGG: 0.0352
ATAGAATC: -0.126
CGCACGCG: 0.346
CTATCCCC: -0.194
AGTACATA: -0.0956
AGCACGAG: -0.103
GCGACACC: 0.153
ACTGTGAT: -0.113
ACTGCCGC: 0.274
CCTGGTGA: -0.17
GAAGTCCC: 0.0164
GCGTTTTA: 0.17
AGGAAACT: -0.244
CCTTACAA: -0.108

Block 5
Target: RING finger protein unkempt homolog, zinc fingers 1-6, GST-SBP tag (UNK, Homo sapiens, UniProt Q9C0B0, residues 30-357)
Chain of UniProt Q9C0B0 (30-357, looked up): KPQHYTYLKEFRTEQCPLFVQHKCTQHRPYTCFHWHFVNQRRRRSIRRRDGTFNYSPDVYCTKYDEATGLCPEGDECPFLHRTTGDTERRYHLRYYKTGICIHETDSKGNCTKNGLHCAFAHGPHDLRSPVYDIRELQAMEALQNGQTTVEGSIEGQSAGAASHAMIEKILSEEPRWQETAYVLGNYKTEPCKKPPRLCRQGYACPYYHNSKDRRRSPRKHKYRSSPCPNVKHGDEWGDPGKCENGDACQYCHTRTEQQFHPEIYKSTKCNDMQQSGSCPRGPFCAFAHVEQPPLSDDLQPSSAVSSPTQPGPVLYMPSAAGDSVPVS
Technique: RNA Bind-n-Seq
Molecule type: RNA
Matrix: in vitro
Concentration: not given
Setting: RNA with constant flanks, human and mouse sites, ends assumed
Relative to: input RNA pool
Direction: higher = stronger binding
Measurement: bound/input enrichment
All sequences stand within: GGGAGUUCUACAGUCCGACGAUC … CAACAGAGGAUUGAGCAUCA
GAUUUCUGUACUCUGAUAUCCAUCAAAGUGCAUAACAUAGUACUCAUGAUGCAAGUUACUGUGACAACAACAUACUUUGGCCACUCUGAACAGAUAUCCCAGGAGAGGUAUCAGUAUGUC: 0.172 ratio
AUGUUUGAACGUGUUUCAGAUGUCAUGUGUUUAGUUUUUAUAUGUGUGUACAUAAUUAUAUAUAGAGAUAGACUUGUGUAUACACCUUCCACAAACACAUCCUCACGGAGAUACAUGUGC: 0.385 ratio
ACUGUAGAGUUUGCAGAUGAGGUCCGGUUGUCCUUCAUCUGUACCGAAGUAGACUGCAAGGUGGUCCACGAAUUCAUUGGUGGUUACAUAUUUCUCUCAACUCGUGCGAAAGACCAAAAU: 0.125 ratio
AACAGGACAGCCUGGUGCCCCAUUACACUCUGUAGGAGUUAUGCAAUUCAGAAGUGGAAUUUAGGAAAUCAUUUAUUUUGAUGUGUCAAUAGAGAGAUUUAUUGUCUGUAAAUUUGGAUG: 7.53 ratio
GGCCCGCAGGAAAUGAGGAAUGGCCGAGCUGGAGAGAAGAGCUGAUUUUGGCAUUACUAAGCCCAGAACGCACAUAACCCAUAGUGAAAUGUGCUGGCCUCUGGUGCAUUUUGCAAGAUG: 0.281 ratio
GAAGUCACCUCAAAGCGAGCACAUAUGCUGAUUGACAUGCACUUUCGGAGUCUGCGCACUAAGUUGUCUCUGAUAAUGAGAAAUGAAGAAGCUAGUAAGCAGCUGGAGAGUUCAAGGCAG: 0.195 ratio
UAUACUUCAUUGGGACCACGAGUAACUGAUGUAGCCACAUAAGGAGACAUAGGUUAUAAACUAGUUAUCUUUUAAAAGGCUCAGCAACACAACUCUUGAAAUGCUUAUCAGGAUAAUGGU: 1.21 ratio
GUUAAUCAUGAUUCAGAAGAUCUAGCUUCACCCUCUGAGUAUCCAGAAAAUGGAGAAAGAUUUAGCUUCCUGAGCAAACCUGUUGAUGAGAACAAUCAGCAGGAUGGAGAAGAUGACUCU: 0.13 ratio
GUUAUCAAGUUCGAUACAGAGGAGGAGGCUAUAGCAAUCGCUAACGCAGCUGAUGUUGGGUUAGCAGGUUAUUUUUACUCUCAAGACCCAGCCCAGAUCUGGAGAGUGGCAGAGCAGCUG: 0.168 ratio
GCCUUUGAAGUGGAACAUGAAUGCUUGGGCAAAUGUCAGGGUCUCUUUGCGCCUCAGUUUUAUGUUCAGCCCGACGCUCCCUGUAUCCAGUGCCUGGAGUGCUGUGGAAUGUUUGCUCCC: 0.195 ratio
AGACUUUCCAGCUCAGAGAGUGAAGAGAGCUUUAUGUCCAAGAACUCUGAAGAUGAUGAGCUAACAAAAGAAUCGAAGCGAUCUGUUCGAAAACGGGGCCGAAGCACAGAUGACUAUUCA: 0.125 ratio

Block 6
Target: CCNE2, cyclin fold, Cln2 fusion (human)
Technique: yeast growth competition, sequencing
Matrix: yeast
Setting: strong parent motif
Relative to: not given
Direction: higher = stronger binding
Measurement: normalised enrichment score
Starting sequence: ANKRD17 docking peptide (human); PSVRRQLFVTVVK; partner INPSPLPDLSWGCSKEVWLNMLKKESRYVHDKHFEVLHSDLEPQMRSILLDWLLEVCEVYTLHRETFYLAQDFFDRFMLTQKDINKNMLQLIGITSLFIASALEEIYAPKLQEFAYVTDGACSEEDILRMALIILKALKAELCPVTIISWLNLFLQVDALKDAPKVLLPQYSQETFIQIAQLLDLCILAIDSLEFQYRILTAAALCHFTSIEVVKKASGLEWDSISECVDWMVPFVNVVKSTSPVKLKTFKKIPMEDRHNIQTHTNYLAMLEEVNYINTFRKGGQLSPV
PSVARQLFVTVVK [R4A]: 1.91
PSVRRALFVTVVK [Q6A]: 1.51
PSVRRQLFVTVAK [V12A]: 3.98
PSVRRQLLVTVVK [F8L]: 0.744
PSVRAQLFVTVVK [R5A]: 1.83
PSARRQLFVTVVK [V3A]: 2.62
PSVRRQLFVTVVA [K13A]: 4.29

Some of these lines once more (block 5):
AACAGGACAGCCUGGUGCCCCAUUACACUCUGUAGGAGUUAUGCAAUUCAGAAGUGGAAUUUAGGAAAUCAUUUAUUUUGAUGUGUCAAUAGAGAGAUUUAUUGUCUGUAAAUUUGGAUG: 7.53 ratio
GGCCCGCAGGAAAUGAGGAAUGGCCGAGCUGGAGAGAAGAGCUGAUUUUGGCAUUACUAAGCCCAGAACGCACAUAACCCAUAGUGAAAUGUGCUGGCCUCUGGUGCAUUUUGCAAGAUG: 0.281 ratio
GAAGUCACCUCAAAGCGAGCACAUAUGCUGAUUGACAUGCACUUUCGGAGUCUGCGCACUAAGUUGUCUCUGAUAAUGAGAAAUGAAGAAGCUAGUAAGCAGCUGGAGAGUUCAAGGCAG: 0.195 ratio
UAUACUUCAUUGGGACCACGAGUAACUGAUGUAGCCACAUAAGGAGACAUAGGUUAUAAACUAGUUAUCUUUUAAAAGGCUCAGCAACACAACUCUUGAAAUGCUUAUCAGGAUAAUGGU: 1.21 ratio
GUUAAUCAUGAUUCAGAAGAUCUAGCUUCACCCUCUGAGUAUCCAGAAAAUGGAGAAAGAUUUAGCUUCCUGAGCAAACCUGUUGAUGAGAACAAUCAGCAGGAUGGAGAAGAUGACUCU: 0.13 ratio
GUUAUCAAGUUCGAUACAGAGGAGGAGGCUAUAGCAAUCGCUAACGCAGCUGAUGUUGGGUUAGCAGGUUAUUUUUACUCUCAAGACCCAGCCCAGAUCUGGAGAGUGGCAGAGCAGCUG: 0.168 ratio
GCCUUUGAAGUGGAACAUGAAUGCUUGGGCAAAUGUCAGGGUCUCUUUGCGCCUCAGUUUUAUGUUCAGCCCGACGCUCCCUGUAUCCAGUGCCUGGAGUGCUGUGGAAUGUUUGCUCCC: 0.195 ratio
AGACUUUCCAGCUCAGAGAGUGAAGAGAGCUUUAUGUCCAAGAACUCUGAAGAUGAUGAGCUAACAAAAGAAUCGAAGCGAUCUGUUCGAAAACGGGGCCGAAGCACAGAUGACUAUUCA: 0.125 ratio
